Published values pooled from the literature.
Each line is one published result; not all experiments were run side by side. ± marks the error that the study gave.
Chain of UniProt O14757 (whole entry, looked up): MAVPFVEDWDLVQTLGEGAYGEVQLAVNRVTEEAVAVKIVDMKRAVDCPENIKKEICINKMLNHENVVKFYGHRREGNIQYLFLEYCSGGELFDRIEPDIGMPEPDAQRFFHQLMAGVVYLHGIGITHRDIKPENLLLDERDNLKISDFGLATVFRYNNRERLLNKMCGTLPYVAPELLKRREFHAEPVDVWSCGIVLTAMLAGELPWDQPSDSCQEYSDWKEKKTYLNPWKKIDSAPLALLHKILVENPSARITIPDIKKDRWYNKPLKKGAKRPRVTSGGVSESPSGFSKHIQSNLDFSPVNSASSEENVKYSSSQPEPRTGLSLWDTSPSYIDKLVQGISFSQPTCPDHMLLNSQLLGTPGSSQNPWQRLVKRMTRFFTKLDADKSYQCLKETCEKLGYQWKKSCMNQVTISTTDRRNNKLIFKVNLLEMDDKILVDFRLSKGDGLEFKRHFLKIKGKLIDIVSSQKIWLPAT
Chain of UniProt Q9ULI0 (whole entry, looked up): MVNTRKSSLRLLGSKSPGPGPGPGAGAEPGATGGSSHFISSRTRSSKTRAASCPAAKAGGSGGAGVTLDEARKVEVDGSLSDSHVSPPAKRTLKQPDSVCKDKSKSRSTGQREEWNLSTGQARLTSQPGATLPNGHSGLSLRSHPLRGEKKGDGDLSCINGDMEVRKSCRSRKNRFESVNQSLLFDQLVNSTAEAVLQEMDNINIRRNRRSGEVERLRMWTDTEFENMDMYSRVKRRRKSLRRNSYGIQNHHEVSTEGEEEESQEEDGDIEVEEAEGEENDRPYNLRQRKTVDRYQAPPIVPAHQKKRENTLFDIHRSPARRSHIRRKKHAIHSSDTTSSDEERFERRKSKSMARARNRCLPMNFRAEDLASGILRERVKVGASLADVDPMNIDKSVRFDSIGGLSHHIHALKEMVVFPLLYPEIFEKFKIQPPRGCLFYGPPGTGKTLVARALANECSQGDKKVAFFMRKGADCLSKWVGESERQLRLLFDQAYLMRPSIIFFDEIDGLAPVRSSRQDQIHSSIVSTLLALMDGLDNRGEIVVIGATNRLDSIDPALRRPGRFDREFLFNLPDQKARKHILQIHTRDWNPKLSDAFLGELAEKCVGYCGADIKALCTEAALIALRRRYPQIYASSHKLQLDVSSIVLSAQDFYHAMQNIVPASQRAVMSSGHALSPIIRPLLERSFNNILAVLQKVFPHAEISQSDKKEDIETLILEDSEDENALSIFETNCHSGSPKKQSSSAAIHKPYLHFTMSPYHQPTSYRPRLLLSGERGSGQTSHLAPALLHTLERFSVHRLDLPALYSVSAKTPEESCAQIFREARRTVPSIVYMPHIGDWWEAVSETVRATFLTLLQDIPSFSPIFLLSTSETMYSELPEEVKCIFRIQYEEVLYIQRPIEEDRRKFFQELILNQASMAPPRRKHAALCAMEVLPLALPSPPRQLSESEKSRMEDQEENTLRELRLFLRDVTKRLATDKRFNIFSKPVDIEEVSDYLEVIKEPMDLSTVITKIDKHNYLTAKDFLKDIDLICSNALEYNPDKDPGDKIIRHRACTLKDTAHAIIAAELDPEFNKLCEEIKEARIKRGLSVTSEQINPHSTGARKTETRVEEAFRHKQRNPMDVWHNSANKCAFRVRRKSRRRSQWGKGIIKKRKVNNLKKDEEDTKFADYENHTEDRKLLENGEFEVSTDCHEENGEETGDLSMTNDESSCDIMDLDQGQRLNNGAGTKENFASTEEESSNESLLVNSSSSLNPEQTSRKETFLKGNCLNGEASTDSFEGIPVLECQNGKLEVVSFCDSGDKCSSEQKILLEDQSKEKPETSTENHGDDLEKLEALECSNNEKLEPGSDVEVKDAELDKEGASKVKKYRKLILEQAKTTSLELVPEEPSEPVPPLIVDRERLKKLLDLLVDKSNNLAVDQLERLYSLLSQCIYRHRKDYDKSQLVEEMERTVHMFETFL
Chain of UniProt P01317 (whole entry, looked up): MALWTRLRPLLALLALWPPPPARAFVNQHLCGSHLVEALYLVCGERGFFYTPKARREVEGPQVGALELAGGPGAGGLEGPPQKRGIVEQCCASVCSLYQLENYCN
Chain of UniProt P0DMS8 (whole entry, looked up): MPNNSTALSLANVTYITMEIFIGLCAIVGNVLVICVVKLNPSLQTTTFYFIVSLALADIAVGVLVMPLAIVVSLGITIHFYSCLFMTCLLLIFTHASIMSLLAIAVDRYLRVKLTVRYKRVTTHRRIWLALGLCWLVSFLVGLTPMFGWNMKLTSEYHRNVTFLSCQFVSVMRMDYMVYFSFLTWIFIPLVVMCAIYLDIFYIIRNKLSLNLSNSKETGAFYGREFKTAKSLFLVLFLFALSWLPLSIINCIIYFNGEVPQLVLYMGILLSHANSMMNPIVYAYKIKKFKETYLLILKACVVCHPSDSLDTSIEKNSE

Molecule | target or system | assay | setting | how to read | measurement | value
CNC(=O)[C@H]1O[C@@H](n2cnc3c(NCc4cccc(I)c4)nc(Cl)nc32)[C@H](O)[C@@H]1O | ADORA3 (Homo sapiens, UniProt P0DMS8) | Motulsky-Mahan competition kinetics | with: [3H]PSB-11 | reference: no GTP over 1 mM GTP | dissociation rate ratio | ≤ 8 fold
Aβ40, N-terminal Atto 488 | itself | single-molecule fluorescence burst analysis | 10 µM, pH 7.5, 37 °C, early aggregation, labeled peptide alone, before growth phase | – | mean oligomer size | 2.55 ± 0.03 N¯phot,mon
insulin | Insulin (INS, Bos taurus, UniProt P01317) | circular dichroism | 0 min | – | α-helix content | 53.9%
CN[C@@H]1C[C@H]2O[C@@](C)([C@@H]1OC)n1c3ccccc3c3c4c(c5c6ccccc6n2c5c31)C(=O)NC4 | CHEK1 (Homo sapiens, UniProt O14757) | KINOMEscan competition binding | 0.5 µM | reference: control | remaining binding | 0%
Aβ42, N-terminal Atto 488 | itself | single-molecule fluorescence burst analysis | 10 µM, 24 h, pH 7.5, 37 °C, labeled peptide alone, high DOL, after fibrillation | – | mean oligomer size | 2.78 N¯phot,mon
H2AX fragment, acetyl K9, C-terminal amide | ATAD2B 953-1085 (Homo sapiens, UniProt Q9ULI0) | ITC | – | – | Kd | 90 µM
COc1ccc(C[C@H]2NC[C@H](O)[C@H]2OC(C)=O)cc1 | pigeon embryo fibroblasts | cytotoxicity | – | – | CC50 | 60 µM
CCCC[C@H]1NC(=O)[C@H](Cc2ccc(F)cc2)NC(=O)[C@H](CCCNC(=N)N)NC(=O)[C@@H](Cc2ccc3ccccc3c2)NC(=O)[C@H](CCCNC(=N)N)NC(=O)[C@H](CCCNC(=N)N)NC(=O)[C@H](CCC(N)=O)NC(=O)C[C@@H](CCc2ccccc2)NC(=O)[C@@H]2CCCCN2C(=O)C(=O)C(C)(C)COC1=O | PTP1B | fluorescence polarization | up to 20 µM | – | binding | no binding

Excerpt of the above:
Molecule | target or system | assay | setting | how to read | measurement | value
COc1ccc(C[C@H]2NC[C@H](O)[C@H]2OC(C)=O)cc1 | pigeon embryo fibroblasts | cytotoxicity | – | – | CC50 | 60 µM
